# Results gathered from unrelated publications.
# Numbered parts are unrelated; each lists some results of a single study.
# UniProt Q9C098, sequence (whole entry, looked up): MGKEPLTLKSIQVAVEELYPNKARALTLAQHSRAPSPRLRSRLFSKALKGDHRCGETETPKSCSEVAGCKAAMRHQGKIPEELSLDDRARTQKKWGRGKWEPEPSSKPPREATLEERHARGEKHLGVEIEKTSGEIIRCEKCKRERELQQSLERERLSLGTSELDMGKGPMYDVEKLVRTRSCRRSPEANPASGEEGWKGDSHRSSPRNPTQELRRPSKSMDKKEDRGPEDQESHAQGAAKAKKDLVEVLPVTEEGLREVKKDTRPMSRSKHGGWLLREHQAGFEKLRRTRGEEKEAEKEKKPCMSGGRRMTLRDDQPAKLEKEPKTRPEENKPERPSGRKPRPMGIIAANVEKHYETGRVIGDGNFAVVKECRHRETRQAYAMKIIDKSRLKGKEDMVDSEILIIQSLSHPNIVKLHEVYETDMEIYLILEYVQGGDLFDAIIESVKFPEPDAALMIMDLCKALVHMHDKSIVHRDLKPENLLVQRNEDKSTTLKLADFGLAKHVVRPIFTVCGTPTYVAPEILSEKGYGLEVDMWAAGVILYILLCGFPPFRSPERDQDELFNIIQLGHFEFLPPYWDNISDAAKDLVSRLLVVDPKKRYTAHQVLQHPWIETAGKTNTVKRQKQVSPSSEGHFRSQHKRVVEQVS
# UniProt P53778, sequence (whole entry, looked up): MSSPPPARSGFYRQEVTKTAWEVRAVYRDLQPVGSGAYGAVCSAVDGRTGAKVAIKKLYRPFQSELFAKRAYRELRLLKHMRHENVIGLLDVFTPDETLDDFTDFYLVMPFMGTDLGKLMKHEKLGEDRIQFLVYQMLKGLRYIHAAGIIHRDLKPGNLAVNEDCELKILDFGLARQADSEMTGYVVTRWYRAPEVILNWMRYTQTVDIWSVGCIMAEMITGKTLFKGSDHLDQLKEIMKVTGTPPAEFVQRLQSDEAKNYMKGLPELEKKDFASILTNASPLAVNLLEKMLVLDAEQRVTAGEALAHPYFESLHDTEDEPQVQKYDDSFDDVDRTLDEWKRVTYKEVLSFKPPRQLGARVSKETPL
# UniProt Q9UIK4, sequence (whole entry, looked up): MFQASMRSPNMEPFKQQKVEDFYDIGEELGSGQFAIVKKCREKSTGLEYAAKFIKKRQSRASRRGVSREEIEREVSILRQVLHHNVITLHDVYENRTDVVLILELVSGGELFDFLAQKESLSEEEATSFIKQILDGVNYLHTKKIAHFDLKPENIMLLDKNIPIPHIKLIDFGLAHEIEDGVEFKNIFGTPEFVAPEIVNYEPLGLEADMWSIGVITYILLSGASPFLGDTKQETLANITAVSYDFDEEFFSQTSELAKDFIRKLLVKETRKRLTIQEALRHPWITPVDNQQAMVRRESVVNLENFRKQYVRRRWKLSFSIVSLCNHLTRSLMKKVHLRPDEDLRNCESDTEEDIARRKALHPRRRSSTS
# UniProt O43781, sequence (whole entry, looked up): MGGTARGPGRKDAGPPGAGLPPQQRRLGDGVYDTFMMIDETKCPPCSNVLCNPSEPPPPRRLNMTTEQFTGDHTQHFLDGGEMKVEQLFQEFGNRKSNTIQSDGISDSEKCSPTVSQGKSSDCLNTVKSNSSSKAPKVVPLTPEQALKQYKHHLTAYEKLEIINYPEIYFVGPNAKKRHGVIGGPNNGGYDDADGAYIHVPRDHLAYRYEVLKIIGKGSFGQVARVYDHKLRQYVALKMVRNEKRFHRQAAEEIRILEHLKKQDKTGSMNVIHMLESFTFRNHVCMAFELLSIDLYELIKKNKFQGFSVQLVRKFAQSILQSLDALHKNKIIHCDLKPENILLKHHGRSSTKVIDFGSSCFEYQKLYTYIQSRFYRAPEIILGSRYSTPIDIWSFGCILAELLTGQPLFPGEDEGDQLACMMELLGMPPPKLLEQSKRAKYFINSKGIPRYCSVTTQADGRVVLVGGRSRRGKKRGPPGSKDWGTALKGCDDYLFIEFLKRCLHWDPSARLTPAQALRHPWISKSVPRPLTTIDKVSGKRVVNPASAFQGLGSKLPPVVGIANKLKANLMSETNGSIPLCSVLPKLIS
# UniProt O95835, sequence (whole entry, looked up): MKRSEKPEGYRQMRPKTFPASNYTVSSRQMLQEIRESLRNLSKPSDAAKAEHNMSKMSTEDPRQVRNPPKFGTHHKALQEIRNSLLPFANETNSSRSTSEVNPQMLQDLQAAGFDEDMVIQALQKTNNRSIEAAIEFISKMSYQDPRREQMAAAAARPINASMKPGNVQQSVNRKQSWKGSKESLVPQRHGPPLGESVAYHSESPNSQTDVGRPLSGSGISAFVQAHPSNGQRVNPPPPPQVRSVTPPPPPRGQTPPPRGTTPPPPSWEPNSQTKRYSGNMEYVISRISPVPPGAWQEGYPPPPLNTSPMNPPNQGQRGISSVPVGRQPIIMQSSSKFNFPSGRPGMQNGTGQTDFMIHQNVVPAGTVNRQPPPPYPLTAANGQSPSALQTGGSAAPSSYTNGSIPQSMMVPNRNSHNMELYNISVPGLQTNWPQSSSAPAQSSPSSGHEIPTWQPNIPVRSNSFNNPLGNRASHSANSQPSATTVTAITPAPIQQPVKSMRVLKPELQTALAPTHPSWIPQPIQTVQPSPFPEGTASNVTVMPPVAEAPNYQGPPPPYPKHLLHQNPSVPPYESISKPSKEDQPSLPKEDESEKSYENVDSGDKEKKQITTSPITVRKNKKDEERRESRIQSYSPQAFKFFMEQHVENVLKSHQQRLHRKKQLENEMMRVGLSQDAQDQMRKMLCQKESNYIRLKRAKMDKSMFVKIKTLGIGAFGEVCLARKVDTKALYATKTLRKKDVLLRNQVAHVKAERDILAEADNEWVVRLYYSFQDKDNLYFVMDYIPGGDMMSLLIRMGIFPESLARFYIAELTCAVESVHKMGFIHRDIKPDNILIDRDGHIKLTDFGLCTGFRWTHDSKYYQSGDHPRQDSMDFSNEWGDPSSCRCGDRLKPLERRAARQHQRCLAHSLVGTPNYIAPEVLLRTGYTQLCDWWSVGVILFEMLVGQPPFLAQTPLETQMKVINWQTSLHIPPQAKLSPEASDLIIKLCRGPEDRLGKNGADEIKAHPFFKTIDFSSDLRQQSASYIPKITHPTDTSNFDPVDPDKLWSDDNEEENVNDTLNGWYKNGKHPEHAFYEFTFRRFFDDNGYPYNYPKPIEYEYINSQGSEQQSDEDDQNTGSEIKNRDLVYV

# Series 1
# SMILES: CC(C)S(=O)(=O)c1ccc2nccc(Nc3ccc4sc(C5CCCC5)nc4c3)c2c1.Cl
# Read-out: kinase activity
# Mode: inhibitor
# Concentration: 1 µM
target,remaining activity [%]
"Death-associated protein kinase 2 (DAPK2, Homo sapiens, UniProt Q9UIK4)",98
"STE20-like serine/threonine-protein kinase (SLK, Homo sapiens, UniProt Q9H2G2)",93
"Mitogen-activated protein kinase 12 (MAPK12, Homo sapiens, UniProt P53778)",101
"Beta-adrenergic receptor kinase 1 (GRK2, Homo sapiens, UniProt P25098)",90
"Receptor-interacting serine/threonine-protein kinase 1 (RIPK1, Homo sapiens, UniProt Q13546)",83
"Citron Rho-interacting kinase (CIT, Homo sapiens, UniProt O14578)",103
"Serine/threonine-protein kinase SIK1 (SIK1, Homo sapiens, UniProt P57059)",99
"Serine/threonine-protein kinase LATS1 (LATS1, Homo sapiens, UniProt O95835)",80
"Serine/threonine-protein kinase DCLK3 (DCLK3, Homo sapiens, UniProt Q9C098)",97
"Dual specificity tyrosine-phosphorylation-regulated kinase 3 (DYRK3, Homo sapiens, UniProt O43781)",88

# Series 2
# Target: Receptor tyrosine-protein kinase erbB-4 (ERBB4, Homo sapiens, UniProt Q15303)
# UniProt Q15303, sequence (whole entry, looked up): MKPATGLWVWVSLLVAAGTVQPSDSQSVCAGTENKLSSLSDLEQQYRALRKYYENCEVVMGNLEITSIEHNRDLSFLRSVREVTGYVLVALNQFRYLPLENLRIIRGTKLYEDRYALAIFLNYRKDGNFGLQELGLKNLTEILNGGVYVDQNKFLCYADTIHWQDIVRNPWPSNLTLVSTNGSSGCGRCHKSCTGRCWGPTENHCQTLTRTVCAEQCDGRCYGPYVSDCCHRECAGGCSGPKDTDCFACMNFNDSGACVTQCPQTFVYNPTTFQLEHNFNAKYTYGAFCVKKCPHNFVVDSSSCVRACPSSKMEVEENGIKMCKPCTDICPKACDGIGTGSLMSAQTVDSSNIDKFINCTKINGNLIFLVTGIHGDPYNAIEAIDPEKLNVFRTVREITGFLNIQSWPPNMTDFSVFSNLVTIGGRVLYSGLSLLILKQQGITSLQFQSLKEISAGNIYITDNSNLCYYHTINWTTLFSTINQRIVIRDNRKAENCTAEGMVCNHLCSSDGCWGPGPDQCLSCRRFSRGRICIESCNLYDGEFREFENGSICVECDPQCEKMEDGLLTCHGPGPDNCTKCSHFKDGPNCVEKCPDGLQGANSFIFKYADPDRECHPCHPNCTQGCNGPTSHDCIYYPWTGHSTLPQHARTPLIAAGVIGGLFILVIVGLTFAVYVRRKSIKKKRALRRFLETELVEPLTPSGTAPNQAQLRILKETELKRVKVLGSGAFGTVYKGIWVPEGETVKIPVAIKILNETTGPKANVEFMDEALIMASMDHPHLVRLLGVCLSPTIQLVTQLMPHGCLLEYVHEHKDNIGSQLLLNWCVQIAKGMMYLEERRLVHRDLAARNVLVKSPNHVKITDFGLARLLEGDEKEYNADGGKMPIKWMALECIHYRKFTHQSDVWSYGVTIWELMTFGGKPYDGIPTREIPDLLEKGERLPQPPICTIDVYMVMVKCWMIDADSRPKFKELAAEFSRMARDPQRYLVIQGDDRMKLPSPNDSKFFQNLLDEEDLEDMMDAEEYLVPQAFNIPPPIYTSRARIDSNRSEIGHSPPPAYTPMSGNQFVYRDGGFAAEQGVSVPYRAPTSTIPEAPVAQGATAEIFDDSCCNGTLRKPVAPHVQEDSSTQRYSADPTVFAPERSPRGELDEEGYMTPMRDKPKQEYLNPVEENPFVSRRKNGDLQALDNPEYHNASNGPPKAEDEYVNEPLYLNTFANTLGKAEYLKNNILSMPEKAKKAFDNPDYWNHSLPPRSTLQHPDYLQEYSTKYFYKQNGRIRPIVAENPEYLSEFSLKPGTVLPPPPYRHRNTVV
# Read-out: enzyme activity
# Mode: inhibitor
# Concentration: 0.5 µM
# Baseline: control
Compound,remaining activity [%]
COc1ccc(OC)c2c(=S)c3ccccc3[nH]c12,104
Cc1nc(-c2ccccc2)c(-c2ccncc2)o1,92.2
O=C(O)c1ccc2c3c1cccc3c(=O)n1c3ccccc3nc21,105
CNC(=O)c1cc(Oc2ccc(NC(=O)Nc3ccc(Cl)c(C(F)(F)F)c3)cc2)ccn1,94.8
CO[C@H]1C[C@@H]2CC[C@@H](C)[C@@](O)(O2)C(=O)C(=O)N2CCCC[C@H]2C(=O)O[C@H]([C@H](C)C[C@@H]2CC[C@@H](O)[C@H](OC)C2)CC(=O)[C@H](C)/C=C(\C)[C@@H](O)[C@@H](OC)C(=O)[C@H](C)C[C@H](C)/C=C/C=C/C=C/1C,88.7
Nc1ccc2ncnc(NCCc3ccc(Oc4ccccc4)cc3)c2c1,70.2
Nc1ncnc2n[nH]c(Nc3ccc(F)cc3)c12,121
N#CC(C#N)=C(N)/C(C#N)=C/c1ccc(O)cc1,92.7
COc1cc2ncnc(Nc3ccc(Oc4ccccc4)cc3)c2cc1OC,8.79
O=C1NC(=O)C(c2cn(CCCO)c3ncccc23)=C1c1cnccn1,115
C#Cc1cccc(Nc2ncnc3cc(OCCOC)c(OCCOC)cc23)c1,61.4
O=C(Nc1cccc(Nc2cc(Nc3cccc(C(F)(F)F)c3)ncn2)c1)C1CC1,99.2
CCOC(=O)c1c(C)[nH]c(/C=C2\C(=O)Nc3ccccc32)c1C,71.2
O=S(=O)(c1cccc2cnccc12)N1CCCNCC1,102
COc1ccc(C(=O)Nc2sc3c(c2C(N)=O)CCCC3)cc1OC,97.2

# Series 3
# Target: 5-hydroxytryptamine receptor 1D (HTR1D, Homo sapiens, UniProt P28221)
# UniProt P28221, sequence (whole entry, looked up): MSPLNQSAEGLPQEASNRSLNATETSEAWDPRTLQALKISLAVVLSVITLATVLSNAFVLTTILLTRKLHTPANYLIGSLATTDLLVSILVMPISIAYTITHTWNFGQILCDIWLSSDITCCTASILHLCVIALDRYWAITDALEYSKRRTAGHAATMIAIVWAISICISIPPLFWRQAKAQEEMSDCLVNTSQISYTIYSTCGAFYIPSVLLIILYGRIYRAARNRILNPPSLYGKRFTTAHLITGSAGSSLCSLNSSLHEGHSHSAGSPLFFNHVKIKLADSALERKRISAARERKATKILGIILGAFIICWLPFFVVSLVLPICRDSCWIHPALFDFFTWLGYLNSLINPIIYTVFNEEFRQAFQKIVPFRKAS
# Read-out: cell-free assay
# Concentration: 10 µM
SMILES,inhibition [%]
Cc1noc([C@H]2C[C@@H](c3ccc(C(F)(F)F)cc3)CN(C(=O)N3CCS(=O)(=O)C3)C2)n1,-9.27
NS(=O)(=O)c1cc(NC(=O)Cc2ccccc2)ccc1Oc1cccc(Cl)c1,1.74
O=C(NNS(=O)(=O)c1ccccc1F)c1cc(F)cc(-c2ccccn2)c1,-0.66
O=C(NCCCC1CCCCC1)c1ccc(CNC(=O)c2cnn(-c3ccccc3)c2C(F)(F)F)cc1,-8.35
CN1CCN(c2ccnc(NCCc3ccccc3)n2)CC1,53.2
O=C(Nc1ccc(Oc2ccc(F)cc2)cc1)N1CCc2ncccc2[C@H]1c1ccc(F)cc1,43.3
COCc1nc2cnc3cc(-c4c(C)noc4C)c(OC[C@H]4CCNC4)cc3c2n1[C@H](C)c1ccccc1,14.8
COc1cc(C(=O)O)ncc1C#Cc1ccccc1NS(=O)(=O)c1cccc2c(N(C)C)ccnc12,11.4
O=C(Nc1cccnn1)N1CC(CC=Cc2cncc(Oc3ccc(C(F)(F)F)cn3)n2)C1,-2.98
O=C1c2ccc(Nc3ccc(F)cc3F)cc2CCc2ccc(OC[C@H](O)CO)cc21,23.8
O=C(NNS(=O)(=O)c1ccccc1)c1cc(-c2ccnnc2)ccc1F,-15
CC(=O)Nc1ncc(CN2CCC[C@H](Cc3cc(C)nc(C)c3)C2)s1,11.6
Cc1ccccc1Oc1cc(-n2c(=O)cc(C(F)(F)F)[nH]c2=O)c2ccccc2c1Cl,0.75
N#CC1(c2ccccn2)CCN(Cc2cc(C(=O)N3CCCC3)c(=O)n3ccccc23)CC1,14.6
CC(=O)Nc1nc(CN2CCC[C@H](Cc3cc(C)nc(C)c3)C2)cs1,14.5
CCC(=NO)C(C)=Cc1ccc(F)c(C)c1,4.54
CCOc1ccc(S(=O)(=O)Nc2ccc(Cl)cc2C#Cc2cnc(C(=O)O)cc2OC)c2ncccc12,-12.6
CN1CCN(C(=O)C(C)(C)c2ccc(C(=O)Nc3cn4cc(-c5cc(C(C)(C)C)cc(C(C)(C)C)c5)ccc4n3)cc2)CC1,50.5
C[C@H](c1ccc(F)cc1)N(Cc1ccc(Cl)c(C(=O)O)c1)C(=O)c1cnc2ccccc2c1,-23.1
CC1=C(C#N)C(c2ccc3[nH]nc(C)c3c2)C(C#N)=C(C)N1,-14.9
CN(C)C(=O)c1sc2nc(N3CCC(S(C)(=O)=O)CC3)cc(C(F)(F)F)c2c1N,6.7
CS(=O)(=O)N1CCCC(NC(=O)[C@H](CCC2CCCCC2)NC(=O)c2ccc(CNC(=O)c3cnc4ccccn34)cc2)C1 (stereo partly drawn),18.9
Nc1nc(NCc2ccccc2)nc(-c2cccc(CO)c2)n1,13.7
Cc1ncc(-c2cc(Cl)ccc2F)cc1-n1c(=O)n(CC(N)=O)c2ccccc21,-22.6
CN1C(=O)[C@@H](N2CCc3c(nn(Cc4ccccc4)c3Br)C2=O)COc2ccccc21,-5.06

# Series 4
# Organism: Sarcocystis neurona
# Read-out: parasite growth
# Concentration: 10 µM
Structure (SMILES),inhibition
CCCCCCCCCCC[C@@H](C[C@@H]1OC(=O)[C@H]1CCCCCC)OC(=O)[C@H](CC(C)C)NC=O,25.1%
CCCCC(=O)N(Cc1ccc(-c2ccccc2-c2nnn[nH]2)cc1)[C@H](C(=O)O)C(C)C,-21%
CC(C)(C)NCC(O)COc1cccc2c1CC(O)C(O)C2 (stereo not drawn),-26.1%
COc1cc2nc(N3CCN(C(=O)C4COc5ccccc5O4)CC3)nc(N)c2cc1OC (stereo not drawn),73.1%
CCN(CC)CC#CCOC(=O)C(O)(c1ccccc1)C1CCCCC1 (stereo not drawn),-21.3%
CN[C@@H]1[C@H](O)[C@H](NC)[C@H]2O[C@@]3(O)C(=O)C[C@@H](C)O[C@H]3O[C@@H]2[C@H]1O.Cl.Cl,-22.7%
COc1ccc2[nH]c([S+]([O-])Cc3ncc(C)c(OC)c3C)nc2c1 (stereo not drawn),-22.3%
CC(=O)N1CCN(c2ccc(OCC3COC(Cn4ccnc4)(c4ccc(Cl)cc4Cl)O3)cc2)CC1 (stereo not drawn),7.9%
COc1cc(C)c(/C=C/C(C)=C/C=C/C(C)=C/C(=O)O)c(C)c1C,-69.1%
COc1c(N2C[C@@H]3CCCN[C@@H]3C2)c(F)cc2c(=O)c(C(=O)O)cn(C3CC3)c12,6.3%

# For quick reference, copied from above (series 2):
Compound,remaining activity [%]
Nc1ccc2ncnc(NCCc3ccc(Oc4ccccc4)cc3)c2c1,70.2
Nc1ncnc2n[nH]c(Nc3ccc(F)cc3)c12,121
N#CC(C#N)=C(N)/C(C#N)=C/c1ccc(O)cc1,92.7
COc1cc2ncnc(Nc3ccc(Oc4ccccc4)cc3)c2cc1OC,8.79
O=C1NC(=O)C(c2cn(CCCO)c3ncccc23)=C1c1cnccn1,115
